{"data": "Assay results gathered from unrelated publications", "organism": "Staphylococcus aureus", "note": "Compare with care: the assays were run in different laboratories. Numbers after ± are the reported error."}
{"Compound": "CC1=C[C@@H](C)[C@H]2[C@@H]3C(=O)C(Cl)(Cl)C(=O)[C@H](C)C(=O)O[C@@H](C)/C=C/C=C\\[C@@H](C)[C@@H]3C=C[C@@H]2C1", "system": "MSSA and MRSA clinical isolates", "measurement": "MIC90", "value": "0.1 µg/mL"}
{"Compound": "CNC(CC(C)C)C(=O)NC1C(=O)NC(CC(N)=O)C(=O)NC2C(=O)NC3C(=O)NC(C(=O)NC(C(=O)O)c4cc(O)cc(O)c4-c4cc3ccc4O)C(O)c3ccc(c(Cl)c3)Oc3cc2cc(c3OC2OC(CO)C(O)C(O)C2OC2CC(C)(NC(=O)CCCCCCCC[n+]3ccccc3)C(O)C(C)O2)Oc2ccc(cc2Cl)C1O (centres unmarked)", "assay": "agar dilution", "system": "MRSA4", "scale": "relative to: vancomycin, higher = more active", "measurement": "MIC fold improvement", "value": "4 fold"}
{"Compound": "Cn1c(SCCN2CCCC2)nnc1C12CC3CC(CC(C3)C1)C2", "system": "IFO 3060", "setting": "200 µg/disc, 24 h, 37 °C", "measurement": "inhibition zone diameter", "value": "16 mm"}
{"Compound": "COc1ccccc1C(=O)Oc1cccccc1=O", "assay": "time-kill", "system": "ATCC 29213", "setting": "1 x MIC80, 24 h", "measurement": "reduction in viable count", "value": "1 log10 CFU"}
{"Compound": "Oc1c(Br)cc(Br)c2nc3cc(C(F)(F)F)ccc3nc12", "assay": "Calgary Biofilm Device", "system": "MRSA 1707", "setting": "biofilm", "measurement": "MBC", "value": "6.25 µM"}
{"Compound": "Cc1cc([N+](=O)[O-])ccc1NC(=O)CSc1nc2ccccc2c(=O)n1-c1ccc(S(N)(=O)=O)cc1", "assay": "microbial killing", "system": "MRSA", "setting": "24 h", "measurement": "MBC", "value": "9.01 µg/mL"}
{"Compound": "CN[C@H](CC(C)C)C(=O)N[C@H]1C(=O)N[C@@H](CC(N)=O)C(=O)N[C@H]2C(=O)N[C@H]3C(=O)N[C@H](C(=O)N[C@H](C(=O)O)c4cc(O)cc(O)c4-c4cc3ccc4O)[C@H](O)c3ccc(c(Cl)c3)Oc3cc2cc(c3O[C@@H]2O[C@H](CO)[C@@H](O)[C@H](O)[C@H]2O[C@H]2C[C@](C)(NCc3ccc(C(=O)OCCCCCCN(Cc4ccccn4)Cc4ccccn4)cc3)[C@H](O)[C@H](C)O2)Oc2ccc(cc2Cl)[C@H]1O", "assay": "mature biofilm, confocal microscopy", "system": "ATCC 33591 MRSA", "setting": "20 µM, 24 h", "measurement": "biofilm thickness", "value": "8.3 µm"}
{"Compound": "O=[N+]([O-])c1ccc2c(c1)C=[N+]1N3C(=[O+][Cu-2]1([Cl])[O]2)c1ccccc1NC3c1cc([N+](=O)[O-])ccc1O (centres unmarked)", "assay": "mature biofilm", "system": "ATCC 29213", "setting": "concentration not given, 24 h", "measurement": "biofilm eradication concentration 80%", "value": "1 × MIC"}
{"Compound": "CCCCCC1CC2CCCC3CC(C)N=C(N1)N32 (centres unmarked)", "assay": "bacterial growth", "system": "ATCC 29213", "measurement": "IC50", "value": "4.44 µM"}
{"Compound": "CC(C)C[C@H](NC(=O)[C@H](CC(N)=O)NC(=O)[C@H](CCCNC(=N)N)NC(=O)[C@@H](CC(C)C)NC(=O)[C@H](Cc1ccc(-c2ccccc2)cc1)NC(=O)[C@H](CC(=O)O)NC(=O)[C@H](CCCCN)NC(=O)[C@@H](CC(C)C)NC(=O)[C@H](CCCNC(=N)N)NC(=O)[C@H](CCC(N)=O)NC(=O)[C@@H](NC(=O)[C@@H](CC(C)C)NC(=O)[C@H](CCCNC(=N)N)NC(=O)[C@H](CCCCN)NC(=O)[C@H](Cc1ccc(-c2ccccc2)cc1)NC(=O)CN)C(C)C)C(=O)N[C@H](C(N)=O)C(C)C", "assay": "XTT", "system": "USA300 LAC, 48 h preformed biofilm", "setting": "1 × MIC, 24 h", "measurement": "viable biofilm cells", "value": "~50%"}
{"Compound": "CC[C@H](C)[C@H](NC(=O)[C@H](CCCN)NC(=O)[C@H](CC(N)=O)NC(=O)[C@H](Cc1c[nH]c2ccccc12)NC(=O)[C@H](Cc1ccccc1)NC(=O)[C@H](CCCN)NC(=O)[C@H](CCCCNC(=N)N)NC(=O)[C@H](CC(C)C)NC(=O)[C@H](Cc1c[nH]c2ccccc12)NC(=O)[C@H](CCCN)NC(=O)[C@H](CCCCNC(=N)N)NC(=O)[C@H](CC(C)C)NC(=O)CNC(C)=O)C(=O)N[C@@H](CCCN)C(=O)N[C@@H](CCCCNC(=N)N)C(N)=O", "assay": "time-kill", "setting": "2 x MIC", "measurement": "time to complete kill", "value": "≤ 6 h"}
{"Compound": "CC(C)=CCc1cc2c(cc1O)OCc1c-2oc2c(CC=C(C)C)c(O)ccc12", "system": "ATCC 25923", "setting": "concentration not given", "measurement": "antibacterial activity", "value": "inactive"}
{"Compound": "O=C(O)CN1C(=O)/C(=C/c2ccc(-c3ccc(N(c4ccccc4)c4ccccc4)cc3)cc2)NC1=S", "assay": "broth microdilution", "system": "ATCC 43300", "measurement": "MBC/MIC ratio", "value": 2}
{"Compound": "N=C(N)NCCC[C@H](NC(=O)[C@H](Cc1c[nH]c2ccccc12)NC(=O)[C@H](CCC(N)=O)NC(=O)[C@H](Cc1c[nH]c2ccccc12)NC(=O)[C@H](CCCNC(=N)N)NC(=O)[C@@H](N)CCCNC(=N)N)C(=O)NCCCC[C@H](NC(=O)[C@H](CCCNC(=N)N)NC(=O)[C@H](Cc1c[nH]c2ccccc12)NC(=O)[C@H](CCC(N)=O)NC(=O)[C@H](Cc1c[nH]c2ccccc12)NC(=O)[C@H](CCCNC(=N)N)NC(=O)[C@@H](N)CCCNC(=N)N)C(=O)NCCCCCC(=O)N[C@@H](CSSC[C@H](NC(=O)CCCCCNC(=O)[C@H](CCCCNC(=O)[C@H](CCCNC(=N)N)NC(=O)[C@H](Cc1c[nH]c2ccccc12)NC(=O)[C@H](CCC(N)=O)NC(=O)[C@H](Cc1c[nH]c2ccccc12)NC(=O)[C@H](CCCNC(=N)N)NC(=O)[C@@H](N)CCCNC(=N)N)NC(=O)[C@H](CCCNC(=N)N)NC(=O)[C@H](Cc1c[nH]c2ccccc12)NC(=O)[C@H](CCC(N)=O)NC(=O)[C@H](Cc1c[nH]c2ccccc12)NC(=O)[C@H](CCCNC(=N)N)NC(=O)[C@@H](N)CCCNC(=N)N)C(N)=O)C(N)=O", "assay": "time-kill", "system": "ATCC 25923", "measurement": "time to bactericidal effect", "value": "≤ 23 h"}
{"Compound": "O=C(CCc1cc(O)c(O)c(O)c1)NCCCCCCCCCC[P+](c1ccccc1)(c1ccccc1)c1ccccc1", "system": "XU212", "setting": "MIC, 1 h", "measurement": "K+ release", "value": "2.13 ± 0.17 µg/mL"}
{"Compound": "CCCCCCCCCCCCCC(=O)N[C@@H](CCCNC(=N)N)C(=O)N[C@@H](CCCNC(=N)N)C(=O)N[C@@H](CCCNC(=N)N)C(N)=O", "assay": "XTT", "system": "USA200", "setting": "6.25 µM, 24 h biofilm", "measurement": "biofilm disruption", "value": "80%"}
{"Compound": "CCCCCCCCCCCCCCCC(=O)N[C@@H](CCN)C(=O)N[C@H](C(=O)N[C@@H](CCN)C(=O)N[C@H]1CCNC(=O)[C@H]([C@@H](C)O)NC(=O)[C@H](CCN)NC(=O)[C@H](CCN)NC(=O)[C@H](CC(C)C)NC(=O)[C@@H](CC(C)C)NC(=O)[C@H](CCN)NC1=O)[C@@H](C)O", "assay": "time-kill", "system": "MRSA", "setting": "2 to 8 × MIC", "measurement": "time to kill", "value": "≤ 60 min"}
{"Compound": "O=C1c2ccccc2NC(c2ccc(O)c(O)c2)N1/N=C/c1ccc(O)c(O)c1 (centres unmarked)", "assay": "respiratory activity, inhibitor, MTT", "system": "ATCC 29213", "setting": "concentration not given", "scale": "at least 70% inhibition", "measurement": "lowest effective concentration", "value": "0.5 × MIC"}
{"Compound": "O.O.O.O.O=C([O-])Cc1ccccc1Nc1c(Cl)cccc1Cl.O=C([O-])Cc1ccccc1Nc1c(Cl)cccc1Cl.[Na+].[Na+].c1cnc2c(c1)ccc1cccnc12.c1cnc2c(c1)ccc1cccnc12", "assay": "crystal violet", "system": "NCTC 6571", "setting": "500 µM", "measurement": "biofilm inhibition", "value": "0.374 ± 0.304%"}
{"Compound": "COc1c2c(cc3oc(=O)cc(-c4ccc(O)cc4)c13)C(=O)c1cc(C)cc(O)c1C2=O", "assay": "microbial growth, disc diffusion", "system": "MTCC96", "setting": "100 µg/disc", "measurement": "inhibition zone", "value": "8 mm"}
{"Compound": "N=C(N)NCCC[C@@H]1NC(=O)[C@H](CCCNC(=N)N)NC(=O)[C@H](CCCNC(=N)N)NC(=O)[C@H](Cc2ccc3ccccc3c2)NC(=O)[C@H](Cc2c[nH]c3ccccc23)NC(=O)[C@H](Cc2ccc3ccccc3c2)NC(=O)[C@H](CCCNC(=N)N)NC1=O", "assay": "bacterial killing", "system": "MRSA ATCC BAA-1556", "setting": "4 x MIC", "measurement": "time to kill", "value": "60 to 120 min"}
{"Compound": "CCc1ccccc1NC(=O)CSc1nc2ccccc2c(=O)n1-c1ccc(S(N)(=O)=O)cc1", "assay": "microbial growth, well diffusion", "system": "ATCC29213", "setting": "500 µg/mL, 24 h", "measurement": "inhibition zone", "value": "18 mm"}
{"Compound": "CCCCCCCCCC(=O)N[C@@H](Cc1c[nH]c2ccccc12)C(=O)N[C@H](CC(N)=O)C(=O)N[C@@H](CC(=O)O)C(=O)N[C@@H]1C(=O)NCC(=O)N[C@@H](CCCN)C(=O)N[C@@H](CC(=O)O)C(=O)N[C@H](C)C(=O)N[C@@H](CC(=O)O)C(=O)NCC(=O)N[C@H](CO)C(=O)N[C@@H]([C@H](C)CC(=O)O)C(=O)N[C@@H](CC(=O)c2ccccc2N)C(=O)O[C@@H]1C", "system": "MRSA biofilm, porous glass beads", "setting": "no gel", "measurement": "MBEC", "value": "64 µg/mL"}
{"note": "Some of these lines once more:"}
{"Compound": "COc1c2c(cc3oc(=O)cc(-c4ccc(O)cc4)c13)C(=O)c1cc(C)cc(O)c1C2=O", "assay": "microbial growth, disc diffusion", "system": "MTCC96", "setting": "100 µg/disc", "measurement": "inhibition zone", "value": "8 mm"}
{"Compound": "N=C(N)NCCC[C@@H]1NC(=O)[C@H](CCCNC(=N)N)NC(=O)[C@H](CCCNC(=N)N)NC(=O)[C@H](Cc2ccc3ccccc3c2)NC(=O)[C@H](Cc2c[nH]c3ccccc23)NC(=O)[C@H](Cc2ccc3ccccc3c2)NC(=O)[C@H](CCCNC(=N)N)NC1=O", "assay": "bacterial killing", "system": "MRSA ATCC BAA-1556", "setting": "4 x MIC", "measurement": "time to kill", "value": "60 to 120 min"}
{"Compound": "CCc1ccccc1NC(=O)CSc1nc2ccccc2c(=O)n1-c1ccc(S(N)(=O)=O)cc1", "assay": "microbial growth, well diffusion", "system": "ATCC29213", "setting": "500 µg/mL, 24 h", "measurement": "inhibition zone", "value": "18 mm"}
